Literature values, collected from citations in different studies.
Compare with care: the assays were run in different laboratories.

| SMILES | cell line | assay | setting | EC50 [nM] |
| --- | --- | --- | --- | --- |
| COc1ccc(N(C)c2nc(C)nc3[nH]ccc23)cc1 | A10 | microtubule depolymerization | – | 5800 |
| C[C@]12CC=C3c4ccc(O)cc4CC[C@H]3[C@@H]1CC[C@@H]2O | HT-22 | cell protection | added: glutamate 20 mM | 1570 |
| CC[C@H](CO)Nc1nc(Nc2cccc(-c3ccccn3)c2)c2ncn(C(C)C)c2n1 | SH-SY5Y | cell growth | – | 17200 |
| C[C@]12CC[C@@H]3c4cc(C56CC7CC(CC(C7)C5)C6)c(O)cc4CC[C@H]3[C@@H]1CCC2=O | HT-22 | cell protection | added: iodoacetic acid 20 µM | 216 |
| O=c1c(O)c(-c2ccc(O)c(O)c2)oc2cc(O)cc(O)c12 | PC-3 | cell viability, trypan blue | – | ~29000 |
| C[C@]12CC[C@@H]3c4ccc(O)cc4CC[C@H]3[C@@H]1CC1(CCCC1)C2=O | HT-22 | cell protection | added: glutamate 20 mM | 10000 |
| C/C(=C\COP(=O)(O)OP(=O)(O)O)CO | Vgamma9Vdelta2 T cells with loaded K562 | interferon gamma release, activator | 1 h | > 100000 |
| C[C@]12CC[C@@H]3c4ccc(O)cc4CC[C@H]3[C@@H]1CC[C@@H]2O | MCF7 | gene transcription, refers to: GREB1 and MYC | – | 0.006 to 0.01 |
| FC(F)(F)Oc1ccc(Nc2cc(NCCN3CCOCC3)ncn2)cc1 | Bcr-Abl transformed cells | – | – | 1000 |
| O=c1cc(COc2cc(Cl)cc(Cl)c2)[nH][nH]1 | PC-12 expressing SOD1 G93A | cytoprotection | – | 67 |
| COc1cccc(OCCCN)c1-c1cc(Nc2cnc(C#N)cn2)n[nH]1 | neuroblastoma cells | cell proliferation | – | < 1 |
| C[C@@H]1CN([C@@H](C)CO)C(=O)c2cccc(NC(=O)Nc3cccc4ccccc34)c2O[C@H]1CN(C)S(=O)(=O)c1ccc2c(c1)OCCO2 | INS-1E cells | cytokine-induced apoptosis, inhibitor | added: TNF-alpha, IL-1beta and IFN-gamma | 780 |

For quick reference, copied from above:
| SMILES | cell line | assay | setting | EC50 [nM] |
| --- | --- | --- | --- | --- |
| C/C(=C\COP(=O)(O)OP(=O)(O)O)CO | Vgamma9Vdelta2 T cells with loaded K562 | interferon gamma release, activator | 1 h | > 100000 |
